Published values from different studies.
Protocols differ between the studies behind these lines. ± marks the error that the study gave.
Cell line: Vero

| SMILES | assay | setting | CC50 |
| --- | --- | --- | --- |
| CCOC(=O)CCCCCCNC1c2ccccc2N(C)S(=O)(=O)c2ccsc21 (stereo not drawn) |  |  | > 100 µM |
| O=C1c2ccccc2C(=O)c2c1ccc1c2C(C(=O)NCc2ccccc2)C(=O)C1c1ccccc1 (stereo not drawn) | cytotoxicity |  | 65.6 ± 0.03 µg/mL |
| CC(C)(C)SSc1ccccc1CCOP1(=O)OC[C@H]2O[C@@H](n3ccc(=O)[nH]c3=O)[C@](C)(F)[C@@H]2O1 (stereo partly drawn) | MTS | 4 days | 16.4 µM |
| O=C1c2ccccc2C(=O)c2c1ccc1c2C(C(=O)Nc2ccc(Br)cc2)C(=O)C1c1ccccc1 (stereo not drawn) | cytotoxicity |  | 80.3 ± 0.01 µg/mL |
| CN1c2ccccc2C(OCCN2CCCCC2)c2cscc2S1(=O)=O (stereo not drawn) |  |  | > 100 µM |
| C[C@@H](O)[C@H](NC(=O)[C@H](Cc1ccc(O)cc1)NC(=O)[C@@H]1CCCN1C(=O)OCC1c2ccccc2-c2ccccc21)C(=O)N[C@@H](CCCNC(=N)N)C(=O)N[C@@H](CO)C(=O)NCC(=O)N1CCC[C@H]1C(=O)NCC(=O)N[C@@H](Cc1c[nH]c2ccccc12)C(=O)N[C@@H](CO)C(=O)N[C@@H](CO)C(=O)N[C@@H](Cc1c[nH]cn1)C(=O)O | cell growth or viability, MTS | 24 h | > 200 µg/mL |
| CC(C)OC(=O)[C@H](C)N[P@](=O)(OC[C@H]1O[C@@H](n2ccc(=O)[nH]c2=O)[C@@](F)(Br)[C@@H]1O)Oc1ccccc1 | MTS | 4 days | > 100 µM |
| O=C1c2ccccc2C(=O)c2c1ccc1c2C(C(=O)Nc2ccccc2)C(=O)C1c1ccccc1 (stereo not drawn) | cytotoxicity |  | 54.96 ± 0.08 µg/mL |
| O=C1C(Cl)=C(Cl)C(=O)c2ccccc21 | cell growth or viability | 72 h | 21.8 µM |
| CC(=O)[C@@]1(O)CC[C@H]2[C@@H]3CCC4=CC(=O)CC[C@]4(C)[C@H]3CC[C@@]21C | cell growth or viability, WST-1 |  | > 40 µM |
| CC[C@H](C)[C@H](NC(=O)[C@H](CC(C)C)NC(=O)CNC(=O)[C@H](Cc1c[nH]cn1)NC(=O)[C@@H](NC(=O)[C@H](Cc1ccccc1)NC(=O)[C@H](CC(N)=O)NC(=O)[C@H](Cc1c[nH]c2ccccc12)NC(=O)[C@@H](NC(=O)[C@H](Cc1c[nH]cn1)NC(=O)CNC(=O)[C@H](Cc1c[nH]c2ccccc12)NC(=O)[C@@H](N)CC(C)C)[C@@H](C)CC)C(C)C)C(N)=O | MTT | 48 h | 27.6 µg/mL |
| CN1c2ccccc2C(N)c2sccc2S1(=O)=O (stereo not drawn) |  |  | > 100 µM |
| COc1ccc2c(O[C@@H]3C[C@H]4C(=O)N[C@]5(C(=O)NS(=O)(=O)C6CC6)C[C@H]5/C=C\CCCCN(C)C(=O)[C@@H]4C3)cc(-c3nc(C(C)C)cs3)nc2c1C | cell growth or viability, WST-1 | 18 h | 18.6 µM |
| CC(C)c1cc2c(cc1O)[C@@]1(C)CCC[C@@](C)(CN)[C@@H]1CC2 | cell growth or viability, MTT | 96 h | 28.3 µM |
| CC[C@H](C)[C@H](NC(=O)[C@H](CC(C)C)NC(=O)CNC(=O)[C@H](Cc1c[nH]cn1)NC(=O)[C@@H](NC(=O)[C@H](Cc1ccccc1)NC(=O)[C@H](CC(N)=O)NC(=O)[C@H](Cc1c[nH]c2ccccc12)NC(=O)[C@@H](NC(=O)[C@H](Cc1c[nH]cn1)NC(=O)[C@H](Cc1c[nH]cn1)NC(=O)[C@H](Cc1c[nH]c2ccccc12)NC(=O)[C@@H](N)CC(C)C)[C@@H](C)CC)C(C)C)C(N)=O | MTT | 48 h | 26.8 µg/mL |
| CCOc1ccc2nc3cc(N)ccc3c(N)c2c1 | cell growth or viability, WST-1 | 18 h | > 40 µM |
| O=C(CN1CCCC1)NNc1ccccc1Sc1cc(Cl)ccc1[N+](=O)[O-] |  |  | > 100 µM |
| CC[C@H](C)[C@@H]1NC(=O)[C@@H]2[C@H](CCN2C(=O)[C@@H](NC(=O)[C@@H](C)NC)[C@@H](C)CC)Oc2ccc(OC)c(c2)/C=C\NC1=O | cell growth or viability, MTT | 48 h | 211 µM |

Some of these lines once more:
| SMILES | assay | setting | CC50 |
| --- | --- | --- | --- |
| O=C1C(Cl)=C(Cl)C(=O)c2ccccc21 | cell growth or viability | 72 h | 21.8 µM |
| CC(=O)[C@@]1(O)CC[C@H]2[C@@H]3CCC4=CC(=O)CC[C@]4(C)[C@H]3CC[C@@]21C | cell growth or viability, WST-1 |  | > 40 µM |
